Results gathered from unrelated publications.
Parts stem from different laboratories: compare values within a part only. Changes are numbered by the printed parent chain.

Block 1
Substance: PhoQ, residues 284 288 289 292 302 303 SNSSNI
Method: Sort-seq
Item: YFP reporter
Medium: E. coli
Setting: PhoQ-PhoP variant library
With: 10 µM Mg2+
Reference: high Mg2+ state
Direction: higher = stronger signaling
target	fold induction
PhoP, residues 12 14 15 18 19 SHWTV (Escherichia coli, UniProt P23836)	1.14
PhoP, residues 12 14 15 18 19 STHWV (Escherichia coli, UniProt P23836)	2.22
PhoP, residues 12 14 15 18 19 QYCSL (Escherichia coli, UniProt P23836)	10.4

Block 2
Target: CCNF, cyclin fold, Cln2 fusion (human)
Method: yeast growth competition, sequencing
Medium: yeast
Setting: strong parent motif
Reference: not given
Direction: higher = stronger binding
Parent: SLBP docking peptide (human); ARYKRKLLINDFG; partner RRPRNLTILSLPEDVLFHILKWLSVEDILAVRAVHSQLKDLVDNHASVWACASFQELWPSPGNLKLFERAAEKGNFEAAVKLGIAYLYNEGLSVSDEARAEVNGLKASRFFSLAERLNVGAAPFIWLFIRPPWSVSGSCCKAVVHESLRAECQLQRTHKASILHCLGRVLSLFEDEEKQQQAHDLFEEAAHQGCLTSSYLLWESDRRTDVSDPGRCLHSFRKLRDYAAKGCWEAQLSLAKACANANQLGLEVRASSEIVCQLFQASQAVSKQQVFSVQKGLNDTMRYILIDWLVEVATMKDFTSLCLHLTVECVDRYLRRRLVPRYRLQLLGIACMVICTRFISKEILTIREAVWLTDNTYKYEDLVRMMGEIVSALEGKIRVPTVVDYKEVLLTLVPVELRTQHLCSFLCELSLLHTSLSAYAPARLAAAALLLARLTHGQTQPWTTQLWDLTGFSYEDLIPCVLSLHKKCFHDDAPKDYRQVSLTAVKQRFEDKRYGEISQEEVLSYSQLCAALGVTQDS
Substitution	normalised enrichment score
A1L	1.63
L7W	1.44
Y3L	2.26
R5K	1.13
I9V	1.06
L8W	2.23
Y3P	1.75
N10M	2.07
R2L	0.944
K6R	0.942
L7A	0.726
Y3W	1.71
R2E	1.33

Block 3
Target: PABPC1L2, full length, GST fusion (mouse, UniProt A0ABA7IW68)
Method: RNAcompete
Form: RNA
Medium: in vitro
Concentration: 20 nM
Setting: 7-mer, probes averaged, single round
Reference: mean of 7-mers
Direction: higher = stronger binding
Residues (chain): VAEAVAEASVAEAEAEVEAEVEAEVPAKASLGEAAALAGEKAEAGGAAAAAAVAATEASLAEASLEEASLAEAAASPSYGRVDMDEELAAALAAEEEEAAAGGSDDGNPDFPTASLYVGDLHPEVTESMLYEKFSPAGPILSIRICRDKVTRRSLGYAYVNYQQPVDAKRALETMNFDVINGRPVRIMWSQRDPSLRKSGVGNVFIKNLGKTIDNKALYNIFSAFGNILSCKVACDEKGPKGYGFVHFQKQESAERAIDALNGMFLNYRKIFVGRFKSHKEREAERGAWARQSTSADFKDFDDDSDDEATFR
Strand	7-mer Z-score
GUUGUGA	-0.11
CCGCGGC	-0.277
UGGAUGA	0.0714
CAUUUGA	-0.302
UGACCAC	0.0678
GCGAGAG	0.126
AGCACGA	0.00798
GUGUAGA	0.0297
UCGACCG	-0.0609

Block 4
Target: CREB3L1, bZIP domain (human)
Method: DHFR protein complementation
Medium: yeast
Setting: single substitutions, most at no-binding floor
Reference: wild-type JUN-FOS pair
Direction: higher = stronger binding
Parent: JUN, bZIP domain (human); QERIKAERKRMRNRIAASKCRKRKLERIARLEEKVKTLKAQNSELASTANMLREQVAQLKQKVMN; partner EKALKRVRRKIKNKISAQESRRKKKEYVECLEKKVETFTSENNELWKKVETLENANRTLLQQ
Substitution	binding fitness [natural log]
I28S	-1.51
L38P	-1.51
M51F	-1.46
Q41E	-1.38
Q41W	-1.55
V35E	-1.34
A29Y	-1.53
I28K	-1.45
S43V	-1.43
L45K	-1.24
S43D	-1.27
L31P	-1.44
N42Y	-1.51
E54S	-1.43
K39P	-1.52

Repeated from above (block 4):
Substitution	binding fitness [natural log]
S43V	-1.43
A29Y	-1.53
I28S	-1.51
V35E	-1.34
Q41W	-1.55
